Published values pooled from the literature.
Each line is one published result; not all experiments were run side by side. Values joined by “and” are separate records of one study, mostly repeats; a detail may differ. ± gives the spread as reported.
Chain of UniProt Q13554 (whole entry, looked up): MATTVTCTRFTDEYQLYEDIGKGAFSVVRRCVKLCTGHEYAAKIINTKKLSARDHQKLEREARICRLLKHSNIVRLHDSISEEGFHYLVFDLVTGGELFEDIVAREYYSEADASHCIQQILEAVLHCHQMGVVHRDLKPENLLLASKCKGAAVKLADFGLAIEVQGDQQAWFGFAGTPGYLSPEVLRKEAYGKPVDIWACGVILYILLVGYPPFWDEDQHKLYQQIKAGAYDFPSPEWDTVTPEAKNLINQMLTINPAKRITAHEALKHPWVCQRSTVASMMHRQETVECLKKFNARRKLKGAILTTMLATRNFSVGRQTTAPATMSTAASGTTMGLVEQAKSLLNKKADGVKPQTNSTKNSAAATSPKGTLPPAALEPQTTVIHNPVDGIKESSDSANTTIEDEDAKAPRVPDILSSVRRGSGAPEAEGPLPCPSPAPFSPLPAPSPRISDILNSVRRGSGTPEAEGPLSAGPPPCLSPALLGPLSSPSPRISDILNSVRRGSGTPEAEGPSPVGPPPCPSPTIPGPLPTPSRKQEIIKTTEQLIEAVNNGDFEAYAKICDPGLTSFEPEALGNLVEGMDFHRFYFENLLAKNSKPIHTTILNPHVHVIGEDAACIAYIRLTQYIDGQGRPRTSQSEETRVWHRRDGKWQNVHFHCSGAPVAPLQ

With `CCC1CNC(CC)CN(C(C(=O)[O-])c2ccc(C(=O)[O-])cc2)C(CC)CN(CC(=O)[O-])C(CC)CN1.[Mn+2]` (stereo not drawn) the Mn content was 0.42 ± 0.06 µg/g (ICP-MS; BALB/c mouse, spleen; intravenous, 0.05 mmol/kg, 30 min, without anaesthesia).
`CCN(CC)CC#CCNc1ccnc2cc(Cl)ccc12` gave a revertants of 11 revertants/well and 8 revertants/well (Salmonella typhimurium; mini-Ames test; TA98; 62.5 µg/well, with rat liver S9).
For `CC(C)(O)c1ncc([S@](N)(=O)=NC(=O)Nc2c3c(cc4c2CCC4)CCC3)s1`, “subjects with TEAEs” read 50% (item: general, administration-site conditions; healthy human; oral, 100 mg, all formulations pooled).
With `CN1CCCNC(=O)c2cccc(c2)C(=O)NCCCN(C)CCCNc2cccc3c2C(=O)c2cccc(c2C3=O)NCCC1` the BUN was 24.8 mg/dL (mice, serum; dose not given).
`Cc1nn(-c2nc3c(F)cc(F)cc3s2)c(O)c1C(c1ccc(C(F)(F)F)cc1)c1c(C)nn(-c2nc3c(F)cc(F)cc3s2)c1O`: “AUMC extrapolated observed” 43.7% and 17.2% and 33.5% (ICR mouse, plasma; intraperitoneal, 10 mg/kg).
With `CN([O-])C(=O)CN1CCN(CC(=O)N(C)[O-])CCN(CC(=O)N(C)[O-])CC1.[89Zr+4]` the intact complex was 98.5% (radio-TLC; human serum; 3 days, run 1).
`O=C([O-])CN1CCN(CC(=O)[O-])CCN(Cc2cccc(C(=O)[O-])n2)CC1.[44Sc+3]` gave a tracer uptake of 0.41 %ID/g (mouse, heart; intravenous, 1 h).
`C/C(N)=N/C(=N\S(=O)(=O)c1ccc(C(F)(F)F)cc1)N1C[C@H](c2ccccc2)C(c2ccc(Cl)cc2)=N1` gave a half-life of 2.7 h (C57BL/6 mouse, heart; intravenous, 10 mg/kg).
The tracer uptake of `CN(Cc1ccccc1)C(=O)CN1CCN(CC(=O)[O-])CCN(Cc2cccc(C(=O)[O-])n2)CC1.[177Lu+3]` is reported as 2.37 %ID/g (mouse, liver; intravenous, 1 h).
The tumour-to-muscle ratio of `COc1cccc(OC)c1-c1cc(C(=O)NC2(C(=O)O)C3CC4CC(C3)CC2C4)nn1-c1ccc(C(=O)NCCNC(=O)[C@H](CCCCNC(=O)[C@H](CC(C)C)NC(=O)C2OC2C(=O)O)NC(=O)CN2CCN(CC(=O)[O-])CCN(CC(=O)[O-])CCN(CC(=O)[O-])CC2)cc1C(C)C.[177Lu+3]` (mixture of isomers) is reported as 45.4 (mouse, HT-29 xenograft; 72 h post injection, biodistribution; baseline: tumour over muscle uptake).
Under “substrate inhibition constant Ki”, `CC(C)=CCc1cc(C(=O)/C=C/c2ccc(O)cc2)c(O)cc1O` is recorded as 66.8 ± 10.7 µM (phase I metabolism; dog liver microsomes).
With `Cc1cc(F)ccc1-c1cc(N2C[C@H]3COC(O)CN3C[C@H]2CO)ncc1N(C)C(=O)C(C)(C)c1cc(C(F)(F)F)cc(C(F)(F)F)c1` (stereo partly drawn) the Km was 0.128 µM (pooled human liver microsomes; pH 7.4, substrate depletion).
`[2H]C([2H])(N)C([2H])([2H])NC(=O)c1cc(C2CC2)nc2c1cnn2C(C)C` gave a concentration of 2.61 µg/mL (female BALB/c mouse, plasma; intraperitoneal, 50 mg/kg, 30 min).
For `CN(Cc1ccccc1)C(=O)CN1CCN(CC(=O)[O-])CCN(CC(=O)N(C)Cc2ccccc2)CC1.[44Sc+3]`, the tracer uptake was 2.61 %ID/g (mouse, stomach; intravenous, 1 h).
`Cc1ccc(=O)n(-c2ccc(O)cc2)c1` gave a CL/F of 19 ± 1.82 L/h/kg (BALB/c mouse, plasma; oral, 1.0 mmol/kg).
`CCCCN1C(=O)c2cccc3c(NCCCCN4CCOCC4)ccc(c23)C1=O`: “fluorescence quantum yield” 0.3 (ethylene glycol).
`Cc1nn(-c2cccc(N)c2)c(=O)c2cnc(Nc3ccc(N4CCNCC4)cc3)nc12` gave an IC50 of greater than 10 µM (Calcium/calmodulin-dependent protein kinase type II subunit beta (CAMK2B, Homo sapiens, UniProt Q13554); SelectScreen kinase).
For `C=CC(=O)Nc1cccc(Cn2ncc3cnc(Nc4cnn(CCOC)c4)nc32)c1`, “percent of control” read 98% (PAK6 human; binding, KINOMEscan; 100 nM; lower = stronger binding).
With `COc1cccc(OC)c1-c1cc(C(=O)NC2(C(=O)O)C3CC4CC(C3)CC2C4)nn1-c1ccc(C(=O)N(C)CCCN(C)CCCN(C)C(=O)[C@H](CCCCNC(=O)[C@H](CC(C)C)NC(=O)C2OC2C(=O)O)NC(=O)CN2CCN(CC(=O)[O-])CCN(CC(=O)[O-])CCN(CC(=O)[O-])CC2)cc1C(C)C.[177Lu+3]` (mixture of isomers) the tumour-to-muscle ratio was 23.5 (mouse, HT-29 xenograft; 24 h post injection, biodistribution; baseline: tumour over muscle uptake).
For `O=C([O-])CN1CCN(CC(=O)[O-])CCN(CC(=O)[O-])CC1.[44Sc+3]`, the tracer uptake was 1.54 %ID/g (mouse, kidney; intravenous, 1 h).
The concentration of `C=CC(=O)N1CC2C(=O)N(CCN(C)C)c3c(c4cc(Cl)c(-c5c(O)cccc5F)nc4n(-c4c(C)ccnc4C(C)C)c3=O)N2CC1C` (stereo not drawn) is reported as 0.153 µg/mL (mouse, plasma; oral, 30 mg/kg, 4 h).
For `OC1(C(F)(F)F)CCN(c2nc(Nc3ccnc(C(F)(F)F)c3)nc(-c3cccc(C(F)(F)F)n3)n2)C1` (stereo not drawn), the AUC(0-t) was 1.15 ± 0.2 µg·h/mL (Sprague-Dawley rat, both sexes, plasma; intravenous, 1 mg/kg).
For `CN(O)C(=O)CCC(=O)NCCCN(CCCCN(CCCNC(=O)CCC(=O)N(C)O)C(=O)CCC(=O)N(C)O)C(=O)CCC(=O)N(C)O.[89Zr]`, the intact complex was 96.8 ± 2.8% (radio-TLC; aqueous buffer; 3 d, pH 7.2, 37 °C, 89Zr-labelled complex, together with: NiCl2 10-fold excess).
`COC1CN([C@H]2CC[C@H]([C@@]3(C)Oc4c(Cl)cc(C(=O)NCc5c(SC)cc(C)[nH]c5=O)c(C)c4O3)CC2)C1`: “log2 fold change” 0.0761 (RNA-seq, item: CKB mouse homolog; mouse, HT-1376 xenograft, whole blood; dose not given; baseline: vehicle).
`CN(Cc1ccccc1)C(=O)CN1CCN(CC(=O)[O-])CCN(CC(=O)[O-])CC1.[44Sc+3]` has a tracer uptake of 3.58 %ID/g (mouse, kidney; intravenous, 1 h).
`CN(CCCO)Cc1ccc(-c2noc(-c3ccc(OCC[18F])c(C(F)(F)F)c3)n2)cc1F` has a brain uptake of 0.73 ± 0.15 %ID/g (Sprague-Dawley rat, male, brain; intravenous, 60 min).
For `COc1ccc([C@@H]2CC(=O)c3c(O)cc(O[C@@H]4O[C@H](CO)[C@@H](O)[C@H](O)[C@H]4O[C@@H]4O[C@@H](C)[C@H](O)[C@@H](O)[C@H]4O)cc3O2)cc1O`, the AUC(0-t) was 0.0397 ± 0.0052 µg·h/mL (Sprague-Dawley rat, male, obese, plasma; intravenous, 4 mg/kg).
`O=C(Nc1cnccc1-c1ccc([18F])nc1)c1ccnc(NC(=O)C2CC2)c1` gave an SUV of 0.076 (ex vivo gamma counting; FVB/NJ mice, both sexes, thalamus; intravenous, 120 min, mean, P-gp inhibitor pretreatment, together with: tariquidar 15 mg/kg iv).
For `CC(C)c1cnc(-c2cc(Cl)ccc2F)cc1Nc1ccncc1C(=O)NC(CO)CO`, the unbound Cmax was 0.0141 µM (female C57BL/6 mice, plasma; oral, 10 mg/kg twice daily, day 1, MC-38 tumour-bearing).
`CC(C)(O)c1ccc(N2Cc3c(ccnc3-c3ccc(F)cc3OCC(F)(F)F)C2=O)cc1` gave a concentration of 123 ng/g (male C57BL/6 mouse, brain; oral, 1 mg/kg, 6 h).
`O=C(Nc1cnccc1-c1ccc([18F])cc1)c1ccnc(NC(=O)C2CC2)c1` gave an SUV of 0.42 (FVB/NJ mouse, both sexes, brain; intravenous, 20 min, together with: tariquidar 15 mg/kg iv).
For `Nc1nc2cnc(C(=O)N3CCOC[C@@H]3c3ccc(C(F)(F)F)cc3)cc2c2c1COC2`, the fraction unbound was 0.108 (human, plasma).
`CC[C@H](C)[C@@H]1NC(=O)[C@H](Cc2ccc(O)cc2)NC(=O)CCCSC[C@@H](C(=O)N(CC(=O)N[C@@H](CC(C)C)C(=O)NCC(N)=O)Cc2ccc(F)cc2)NC(=O)[C@H](CC(N)=O)NC(=O)[C@H](CCC(N)=O)NC1=O`: “severe adverse events” 0% (human; intranasal, 100 µg single dose).
With `C=CC(=O)Nc1cc(Nc2nccc(-c3c[nH]c4ccccc34)n2)c(OC)cc1N(C)CCN(C)C` the recovery was 93.6% (storage stability; human plasma; 10 d, -80 °C, MQC level).
`CN(Cc1ccccc1)C(=O)CN1CCN(CC(=O)N(C)Cc2ccccc2)CCN(Cc2cccc(C(=O)[O-])n2)CC1.[44Sc+3]` has a tracer uptake of 0.69 %ID/g (mouse, spleen; intravenous, 1 h).
For `Nc1ncc(-c2cc(-c3cnn(CC(F)(F)F)c3)ncc2F)nc1C(=O)NC1CNCC(F)C1` (stereo not drawn), the remaining binding was 73% (PKAC-beta; KINOMEscan competition binding; 1 µM; baseline: DMSO control).
For `COc1ccc2c(c1)CCn1c[n+]3c(c1-2)-c1ccc(OC)cc1CC3`, “red cell distribution width” read 17.6 ± 4.1% (female NSG mice, blood; 6 mg/kg, day 14, 5 days per week).
The Tmax of `C=C(NC(=O)c1csc(-c2nc3c(cc2O)-c2nc(cs2)C(=O)NC(C(C)O)C(=O)NC(=C(C)OC)c2nc(cs2)C(=O)NC2c4nc(cs4)C(=O)NC(COC(=O)c4c5c6c(cccc6n4O)COC(=O)C(OC4CC(C)(O)C(N(C)C)C(C)O4)C2OC5)c2nc-3cs2)n1)C(N)=O` (stereo not drawn) is reported as 6.08 h (ICR mice, Streptococcus pneumoniae ATCC 49169 infected, immunocompromised, blood; intravenous, 8 mg/kg/day three times daily).
For `Cc1ncsc1-c1ccc(C(C)NC(=O)C2CC(O)CN2C(=O)C(NC(=O)CCCCCCCCCCN2CCCC(Nc3ncc(Cl)c(Nc4ccccc4S(=O)(=O)C(C)C)n3)C2)C(C)(C)C)cc1` (stereo not drawn), “log2 fold change” read -1.35 (22Rv1; RNA-seq, item: ZNF16 mRNA; concentration not given; baseline: DMSO).
The remaining compound of `Cc1ccc(OCC(=O)N(Cc2cccs2)c2ccn[nH]2)cc1` is reported as 70.7 (monkey plasma; 750 ng/mL, 6 h, 37 °C, unit not given; baseline: time zero).
`N#C[C@@H]1CCCN1C(=O)CNC(=O)c1ccnc2ccc(OCCCN3CCN(C(=O)CCc4ccc5c(c4)CN4CCN(Cc6cc(CCC(=O)O)ccc6O)CC(=O)[O][Al-]([18F])([O]C(=O)C4)[O]5)CC3)cc12` (stereo partly drawn) gave a radiochemical purity of 57.3 ± 6.4% (radio-TLC; CD-1 mice, plasma; intravenous, 120 min post-injection).
With `C[C@]12C[C@H](c3ccc(S(C)(=O)=O)cc3)C3=C4CCC(=O)C=C4CC[C@H]3[C@@H]1CC[C@@]2(O)C(F)(F)C(F)(F)F` the plasma concentration was 0.0225 µg/mL (item: compound (parent); healthy human volunteers, pooled plasma; oral, 5 mg daily, day 28, 1 h).
`CC(C)OCCOCc1ccc(OCC(O)CN(N=O)C(C)C)cc1` (stereo not drawn) — result for “T>G mutation fraction”: “increased” (mutation spectrum, duplex sequencing; NMRI mouse, liver; concentration not given).
For `N#C[C@@H]1CC(F)(F)CN1C(=O)CNC(=O)c1ccnc2ccc(OCCCN3CCN(C(=O)CCc4ccc(O)c(CN5CCN6CC(=O)[O][Al-]([18F])([O]C(=O)C5)[O]c5ccc(CCC(=O)N7CCN(CCCOc8ccc9nccc(C(=O)NCC(=O)N%10CC(F)(F)C[C@H]%10C#N)c9c8)CC7)cc5C6)c4)CC3)cc12` (stereo partly drawn), the radiochemical purity was 61.3 ± 4.7% (radio-TLC; CD-1 mice, plasma; intravenous, 120 min post-injection).
`COc1ccc(Nc2nc(Nc3ccc(OCCOCCOCC[18F])cc3)ncc2Br)cc1` has an uptake ratio of 0.47 (ICR mice, S180 tumour; intravenous, 370 kBq, 5 min; baseline: tumour over blood).
